Results of several laboratories.
Each numbered part is a random draw from the data of one study; scales do not carry over between parts. Values joined by “and” are separate records of one study, mostly repeats; a detail may differ.
UniProt Q9NRM7, sequence (whole entry, looked up): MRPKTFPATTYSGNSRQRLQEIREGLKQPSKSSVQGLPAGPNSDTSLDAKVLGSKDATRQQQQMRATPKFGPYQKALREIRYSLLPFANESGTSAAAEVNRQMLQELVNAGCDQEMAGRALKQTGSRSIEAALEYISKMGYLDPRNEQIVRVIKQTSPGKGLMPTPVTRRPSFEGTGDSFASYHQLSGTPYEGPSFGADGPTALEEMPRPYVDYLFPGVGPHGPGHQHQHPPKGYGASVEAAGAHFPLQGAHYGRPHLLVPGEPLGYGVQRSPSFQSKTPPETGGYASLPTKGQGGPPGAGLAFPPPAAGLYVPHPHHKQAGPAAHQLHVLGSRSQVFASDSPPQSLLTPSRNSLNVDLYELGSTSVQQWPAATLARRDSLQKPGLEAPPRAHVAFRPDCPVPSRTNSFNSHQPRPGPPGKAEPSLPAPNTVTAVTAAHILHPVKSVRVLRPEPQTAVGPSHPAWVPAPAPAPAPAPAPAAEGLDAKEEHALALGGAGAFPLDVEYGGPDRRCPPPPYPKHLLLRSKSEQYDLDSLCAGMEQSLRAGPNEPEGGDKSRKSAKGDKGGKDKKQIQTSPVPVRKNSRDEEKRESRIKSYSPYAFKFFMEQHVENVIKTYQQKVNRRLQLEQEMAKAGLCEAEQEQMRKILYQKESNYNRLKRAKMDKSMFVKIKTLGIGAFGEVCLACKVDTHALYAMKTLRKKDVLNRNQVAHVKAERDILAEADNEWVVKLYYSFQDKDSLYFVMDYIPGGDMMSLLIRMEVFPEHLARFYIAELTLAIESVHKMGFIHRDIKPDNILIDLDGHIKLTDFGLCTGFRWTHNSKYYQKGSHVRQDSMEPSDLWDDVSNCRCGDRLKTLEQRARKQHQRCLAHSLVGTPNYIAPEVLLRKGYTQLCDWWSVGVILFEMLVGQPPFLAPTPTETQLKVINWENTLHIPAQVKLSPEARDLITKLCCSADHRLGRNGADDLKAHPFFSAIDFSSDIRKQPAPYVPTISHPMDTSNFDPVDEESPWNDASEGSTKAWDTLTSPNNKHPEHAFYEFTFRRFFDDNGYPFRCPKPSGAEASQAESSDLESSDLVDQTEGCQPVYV
UniProt Q8IWQ3, sequence (whole entry, looked up): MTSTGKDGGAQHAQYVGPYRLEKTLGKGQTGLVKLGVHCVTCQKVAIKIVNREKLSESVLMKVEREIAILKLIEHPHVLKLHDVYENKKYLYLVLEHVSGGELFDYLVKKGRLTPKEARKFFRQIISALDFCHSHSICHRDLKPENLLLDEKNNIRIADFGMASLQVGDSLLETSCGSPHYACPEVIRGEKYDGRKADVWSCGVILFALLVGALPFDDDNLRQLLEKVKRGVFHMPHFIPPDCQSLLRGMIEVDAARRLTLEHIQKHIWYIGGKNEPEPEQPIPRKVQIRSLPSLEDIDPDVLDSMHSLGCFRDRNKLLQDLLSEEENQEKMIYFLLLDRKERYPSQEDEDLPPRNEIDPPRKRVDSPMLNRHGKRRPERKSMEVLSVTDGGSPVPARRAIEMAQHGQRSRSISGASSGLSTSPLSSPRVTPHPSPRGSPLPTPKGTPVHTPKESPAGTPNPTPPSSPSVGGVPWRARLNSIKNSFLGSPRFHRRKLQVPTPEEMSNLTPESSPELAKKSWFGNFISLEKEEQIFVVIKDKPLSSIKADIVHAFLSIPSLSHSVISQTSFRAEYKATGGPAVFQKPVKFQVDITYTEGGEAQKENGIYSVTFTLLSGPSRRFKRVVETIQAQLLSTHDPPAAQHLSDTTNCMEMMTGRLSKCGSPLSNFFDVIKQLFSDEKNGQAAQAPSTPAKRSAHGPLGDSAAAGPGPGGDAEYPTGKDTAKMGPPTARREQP
UniProt Q04771, sequence (whole entry, looked up): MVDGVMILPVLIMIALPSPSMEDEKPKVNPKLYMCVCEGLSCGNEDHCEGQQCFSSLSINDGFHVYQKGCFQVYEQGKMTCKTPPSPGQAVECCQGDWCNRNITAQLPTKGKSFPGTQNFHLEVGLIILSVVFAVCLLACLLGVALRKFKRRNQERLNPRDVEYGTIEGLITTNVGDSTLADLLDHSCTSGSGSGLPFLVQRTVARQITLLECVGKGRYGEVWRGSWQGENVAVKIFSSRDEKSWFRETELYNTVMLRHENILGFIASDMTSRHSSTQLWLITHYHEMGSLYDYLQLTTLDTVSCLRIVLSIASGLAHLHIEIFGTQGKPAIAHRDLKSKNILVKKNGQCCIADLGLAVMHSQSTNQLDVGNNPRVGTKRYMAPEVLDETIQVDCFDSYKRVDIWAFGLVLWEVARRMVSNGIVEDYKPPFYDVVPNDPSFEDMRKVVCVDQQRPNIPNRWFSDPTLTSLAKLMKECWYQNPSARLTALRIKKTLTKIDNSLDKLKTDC
UniProt Q9H2X6, sequence (whole entry, looked up): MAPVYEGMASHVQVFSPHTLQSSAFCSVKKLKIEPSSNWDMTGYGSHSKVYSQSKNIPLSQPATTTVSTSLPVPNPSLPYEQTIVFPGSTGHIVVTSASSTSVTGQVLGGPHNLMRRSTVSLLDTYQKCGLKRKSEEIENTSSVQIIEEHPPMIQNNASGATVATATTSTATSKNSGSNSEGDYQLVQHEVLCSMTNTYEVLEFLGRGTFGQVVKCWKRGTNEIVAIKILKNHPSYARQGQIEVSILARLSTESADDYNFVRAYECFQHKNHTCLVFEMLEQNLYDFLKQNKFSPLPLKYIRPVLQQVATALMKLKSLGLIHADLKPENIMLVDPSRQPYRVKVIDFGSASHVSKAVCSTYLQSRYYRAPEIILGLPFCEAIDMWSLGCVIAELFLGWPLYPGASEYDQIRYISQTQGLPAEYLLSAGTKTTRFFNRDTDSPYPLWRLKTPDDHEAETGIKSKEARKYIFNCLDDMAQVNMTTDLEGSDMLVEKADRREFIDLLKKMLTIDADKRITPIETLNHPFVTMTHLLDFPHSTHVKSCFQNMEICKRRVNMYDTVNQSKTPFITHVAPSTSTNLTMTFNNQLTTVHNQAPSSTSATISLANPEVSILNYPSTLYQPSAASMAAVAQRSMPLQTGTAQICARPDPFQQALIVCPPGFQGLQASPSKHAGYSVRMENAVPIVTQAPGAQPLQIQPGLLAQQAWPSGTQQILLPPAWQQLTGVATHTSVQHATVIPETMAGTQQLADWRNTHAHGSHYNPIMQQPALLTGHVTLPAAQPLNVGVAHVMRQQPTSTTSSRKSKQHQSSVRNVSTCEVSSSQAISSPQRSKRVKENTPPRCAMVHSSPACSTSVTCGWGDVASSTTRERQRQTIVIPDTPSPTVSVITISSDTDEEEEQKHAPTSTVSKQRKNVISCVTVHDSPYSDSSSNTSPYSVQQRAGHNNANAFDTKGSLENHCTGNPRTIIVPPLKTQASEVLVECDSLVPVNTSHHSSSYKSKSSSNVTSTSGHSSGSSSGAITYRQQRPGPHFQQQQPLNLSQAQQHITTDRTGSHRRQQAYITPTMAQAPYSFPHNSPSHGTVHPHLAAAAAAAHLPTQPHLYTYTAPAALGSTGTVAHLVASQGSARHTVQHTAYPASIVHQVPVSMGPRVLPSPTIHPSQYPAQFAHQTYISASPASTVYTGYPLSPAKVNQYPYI
UniProt Q59H18, sequence (whole entry, looked up): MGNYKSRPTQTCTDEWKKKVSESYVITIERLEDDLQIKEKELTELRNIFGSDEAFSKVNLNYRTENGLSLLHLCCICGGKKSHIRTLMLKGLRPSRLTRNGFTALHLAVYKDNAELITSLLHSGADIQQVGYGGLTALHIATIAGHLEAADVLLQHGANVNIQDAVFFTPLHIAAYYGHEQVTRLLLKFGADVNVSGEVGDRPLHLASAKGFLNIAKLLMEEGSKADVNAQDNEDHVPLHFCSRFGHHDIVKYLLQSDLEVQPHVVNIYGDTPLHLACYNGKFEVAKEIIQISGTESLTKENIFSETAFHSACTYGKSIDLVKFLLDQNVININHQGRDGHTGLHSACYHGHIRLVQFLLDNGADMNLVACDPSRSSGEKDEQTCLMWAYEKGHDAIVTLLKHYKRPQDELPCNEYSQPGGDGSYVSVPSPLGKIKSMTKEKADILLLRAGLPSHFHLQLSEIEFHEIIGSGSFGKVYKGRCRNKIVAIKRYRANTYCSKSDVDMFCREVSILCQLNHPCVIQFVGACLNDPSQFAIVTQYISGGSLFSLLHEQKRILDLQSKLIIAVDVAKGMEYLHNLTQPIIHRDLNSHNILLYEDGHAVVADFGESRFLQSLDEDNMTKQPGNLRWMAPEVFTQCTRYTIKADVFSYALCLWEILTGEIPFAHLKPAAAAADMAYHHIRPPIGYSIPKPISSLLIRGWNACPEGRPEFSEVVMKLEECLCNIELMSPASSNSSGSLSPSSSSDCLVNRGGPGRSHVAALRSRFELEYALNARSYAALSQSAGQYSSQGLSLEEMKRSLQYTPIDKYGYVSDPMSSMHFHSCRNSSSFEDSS

Set 1 — species: human; medium: microsomes or S9; concentration: 2 µM; time: 0.5 h
The remaining compound of `CC(C)c1noc(CCCn2ccc(-c3ccc(Br)cc3)n2)n1` is reported as 56.1%.
With `COc1ccc2c(n1)c1c(n2-c2ccccn2)CCC1` the remaining compound was 0.0375%.
For `CC(=O)c1cccc(NC(=O)CN(C)S(=O)(=O)c2c(C)cc(C)cc2C)c1`, the remaining compound was 10.9%.
`C=CCn1cc(Cl)cc/c1=N\C=C(/C#N)C(=O)OCC` gave a remaining compound of 54.4%.
With `CC(C)(C)n1cc(Nc2cccc(F)c2C#N)cn1` the remaining compound was 35.9%.

Set 2 — technique: phase 2a trial; species: idiopathic pulmonary fibrosis patients
SMILES: CC(C)n1cnc(-c2ccc(F)cc2)c1-c1ncc(C(=O)Nc2ccc(N3CCN(C)CC3)cc2)[nH]1
60 mg once daily, grade 3 — “patients with increased interferon-gamma”: 0%.
The “patients with increased interferon-gamma” was 0% (all dose arms pooled, grade 2).
For all dose arms pooled, grade 4: “patients with increased interferon-gamma” read 0%.
For 60 mg once daily, grade 4: “patients with increased interferon-gamma” read 0%.

Set 3 — medium: plasma
Compound: O=C1CCC(N2Cc3cc(C4CCN(Cc5ccccc5)CC4)ccc3C2=O)C(=O)N1 (stereo not drawn)
For male ICR mice; intravenous, 1.0 mg/kg: AUC(0-inf) read 325 ng·h/mL and 433 ng·h/mL.
For male Sprague Dawley rats; intravenous, 1.0 mg/kg: AUC(0-inf) read 335 ng·h/mL.
male ICR mice; oral, 3.0 mg/kg — AUC(0-inf): 606 ng·h/mL and 665 ng·h/mL.

Set 4 — technique: competition with immobilised ligand; concentration: 0.1 µM
Structure (SMILES): Cc1cc(C)c(-n2ccn3nc(-c4cccnc4)cc23)cc1NC(=O)c1cc(C#N)cc(S(F)(F)(F)(F)F)c1
The remaining binding was 73.2% (Serine/threonine-protein kinase LATS2 (LATS2, Homo sapiens, UniProt Q9NRM7); cell-free assay).
The remaining binding was 94.4% (ALK tyrosine kinase receptor (ALK, Homo sapiens, UniProt Q9UM73); cell-free assay).
For Cyclin-dependent kinase 7 (CDK7, Homo sapiens, UniProt P50613); cell-free assay: remaining binding read 70.1%.
The remaining binding was 83.3% (Activin receptor type-1 (ACVR1, Homo sapiens, UniProt Q04771); cell-free assay).
For Tyrosine-protein kinase ABL1, non-phosphorylated (ABL1, Homo sapiens, UniProt P00519, F317I); binding: remaining binding read 65.8%.
Mast/stem cell growth factor receptor Kit (KIT, Homo sapiens, UniProt P10721, V559D/V654A); cell-free assay — remaining binding: 89.4%.
SRSF protein kinase 2 (SRPK2, Homo sapiens, UniProt P78362); cell-free assay — remaining binding: 60.1%.
Serine/threonine-protein kinase BRSK2 (BRSK2, Homo sapiens, UniProt Q8IWQ3); cell-free assay — remaining binding: 97.5%.
The remaining binding was 74.9% (Rho-associated protein kinase 1 (ROCK1, Homo sapiens, UniProt Q13464); cell-free assay).
Ribosomal protein S6 kinase alpha-6, C-terminal kinase domain (RPS6KA6, Homo sapiens, UniProt Q9UK32); cell-free assay — remaining binding: 74.9%.
It gave 86.2% for remaining binding (Homeodomain-interacting protein kinase 2 (HIPK2, Homo sapiens, UniProt Q9H2X6); cell-free assay).
It gave 82.6% for remaining binding (Tyrosine-protein kinase ABL1, phosphorylated (ABL1, Homo sapiens, UniProt P00519, M351T); cell-free assay).
The remaining binding was 85.8% (Serine/threonine-protein kinase TNNI3K (TNNI3K, Homo sapiens, UniProt Q59H18); cell-free assay).
It gave 78.1% for remaining binding (Death-associated protein kinase 3 (DAPK3, Homo sapiens, UniProt O43293); cell-free assay).
The remaining binding was 85.4% (Serine/threonine-protein kinase 3 (STK3, Homo sapiens, UniProt Q13188); cell-free assay).
For Dual specificity mitogen-activated protein kinase kinase 5 (MAP2K5, Homo sapiens, UniProt Q13163); cell-free assay: remaining binding read 91.8%.

Set 5 — effect on: enzyme activity; mode: inhibitor; concentration: 10 µM
Target: Calcium/calmodulin-dependent protein kinase type II subunit alpha (CAMK2A, Homo sapiens, UniProt Q9UQM7)
UniProt Q9UQM7, sequence (whole entry, looked up): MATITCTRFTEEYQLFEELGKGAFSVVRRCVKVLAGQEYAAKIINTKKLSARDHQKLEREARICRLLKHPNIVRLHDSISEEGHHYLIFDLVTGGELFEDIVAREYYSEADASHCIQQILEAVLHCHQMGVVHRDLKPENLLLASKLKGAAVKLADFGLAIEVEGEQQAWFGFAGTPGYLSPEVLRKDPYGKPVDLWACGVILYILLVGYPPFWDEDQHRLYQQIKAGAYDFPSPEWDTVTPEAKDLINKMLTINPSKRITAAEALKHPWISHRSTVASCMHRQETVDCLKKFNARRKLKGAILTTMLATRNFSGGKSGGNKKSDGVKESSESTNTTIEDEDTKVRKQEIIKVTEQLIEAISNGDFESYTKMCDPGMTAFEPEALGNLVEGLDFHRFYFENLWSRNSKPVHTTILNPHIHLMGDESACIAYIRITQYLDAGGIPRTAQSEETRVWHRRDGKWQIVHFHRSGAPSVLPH
The inhibition of `O=C(O)/C=C/c1cnc[nH]1` is reported as -1%.
For `CC(C)(C)NC(=O)[C@@H]1CN(Cc2cccnc2)CCN1C[C@@H](O)C[C@@H](Cc1ccccc1)C(=O)N[C@H]1c2ccccc2C[C@H]1O`, the inhibition was -9%.
For `C[C@H](Oc1cc(-c2cnn(C3CCNCC3)c2)cnc1N)c1c(Cl)ccc(F)c1Cl`, the inhibition was -8%.
`O=C(CCCCCCC(=O)Nc1ccccc1)NO` gave an inhibition of 0%.
`CCCCCCCC/C=C\CCCCCCCC(=O)NCC(=O)O` has an inhibition of -48%.

Set 6 — concentration: 1 µM
SMILES: Cc1ccc(NC(=O)c2ccnc(C(F)(F)F)c2)cc1-c1cc(OCCO)nc(N2CCOCC2)c1
The remaining binding was 26% (Mitogen-activated protein kinase 14 (MAPK14, Homo sapiens, UniProt Q16539); competitive binding, scanMAX; p38-alpha, 1000 nM).
For Serine/threonine-protein kinase RIO3 (RIOK3, Homo sapiens, UniProt O14730); competitive binding panel; reference: vehicle: remaining binding read 66%.
Serine/threonine-protein kinase Nek2 (NEK2, Homo sapiens, UniProt P51955); competitive binding panel; reference: vehicle — remaining binding: 97%.
